Measured values from different studies.
Parts stem from different laboratories: compare values within a part only.

Sample 1 — method: RNA Bind-n-Seq; molecule type: RNA; medium: in vitro; concentration: 365 nM; relative to: no-protein control; direction: higher = stronger binding
Target: RNA binding protein fox-1 homolog 2, RRM domain, GST-SBP tag (RBFOX2, Homo sapiens, UniProt O43251-10, residues 100-194)
Setting: natural RNA segment, single round, ends assumed
Residues (chain): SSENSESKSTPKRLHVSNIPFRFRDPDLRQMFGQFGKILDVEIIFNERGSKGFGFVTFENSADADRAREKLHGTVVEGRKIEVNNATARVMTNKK
| Sequence | RBNS enrichment (R) |
| --- | --- |
| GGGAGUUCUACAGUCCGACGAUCAAAUUGCUUUGUAUUGUAUAUUACAAUGAUCACCGACUGAAAAUAUUGUUUUACAAUAGUUCUGUGGGGCUGUUUUUUUGUUAUUAAACAAAUAAUUUAGAUGGUGGUAAUGGAAUUCUCGGGUGCCAA | 0.42 |
| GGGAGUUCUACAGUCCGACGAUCCUAACAAUCAGCAGAUGGGAGUGUGGGUUCCUUAUGUCACAGGCUGUGCCCCAGCGGUCACUCACAACAUAGGUCUGUUGAGUCUUUUUUAAAUGCACUAGGAGCCAACUUGGAAUUCUCGGGUGCCAA | 0.33 |
| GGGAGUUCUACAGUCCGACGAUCUAGAGAAAUAGCCUGUGGGACUUGUUAAAGAAGAUAGAUAGUAAGAAAAGCAGCCAUUGCGUGCCCUCUGUGAAGAGUUCUAACUUGGAGAACAAAUCUCUCAGACAAAUUGGAAUUCUCGGGUGCCAA | 0.819 |
| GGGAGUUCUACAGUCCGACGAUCCACACUGAACUGAAGGGGACUUGCGCGGAUGUGGGAGAUGCAAGCCUUCGCUUUAUUUUUUUAUAACUAUCAACUGCCAUCAUGUUUUGUAAUUUGGGGAUCUUGAUUUCUGGAAUUCUCGGGUGCCAA | 0.724 |
| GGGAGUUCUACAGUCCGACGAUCCAAGGAUGAAAAGCACAUGGAAAAAAAUGGAUGAGGAGGGAAAACUCUGCCAAAUGGAAAAUGACCAAAUUUAAGAGGGUGGGACAGUCCCCUGCUCCUCUCCCAGAGGGUGGAAUUCUCGGGUGCCAA | 1.82 |
| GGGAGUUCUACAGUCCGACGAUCCUAUUGGACAAAGUAUUUAUGUAAUUAUUUGAUAUCUCUUGUAAAUAGGUGGAAUAUGACUGCUCAGAAAGUUAAACUUUAAUUUAUUGAAUUGUACAUAGCUGGAUGUAUGGAAUUCUCGGGUGCCAA | 0.371 |
| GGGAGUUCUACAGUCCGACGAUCACCUCAGGUUCCAAAUUCAGUAAAUUUUGGAAACAGUACAGCUAUUUCUCAUCAAUUCUCUAUCAUGUUGAAGUCAAAUUUGGAUUUUCCACCAAAUUCUGAAUUUGUAGUGGAAUUCUCGGGUGCCAA | 0.383 |
| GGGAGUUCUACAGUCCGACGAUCCUUUUUUAUCUUGUAUGUCCCCCUCUUAGUCUGCUGAGCUUUUGUUUUGCUUGGUUUUCAGUGAUAGACAUGGGAUAGCCAAAAGAAGGGACUACCUGAAACCCCUAACUUGGAAUUCUCGGGUGCCAA | 0.228 |
| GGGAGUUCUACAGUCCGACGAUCUUGAGUCUGUUCCUUUCAUCUAAUCCAUUGGUUCUCAACCUUCCUAAUGCUGUAACCCUUUAAUACAGUUCCUCAUGUUCUGGUGACCCCUCCCCCAACUAUAAAAUUAUUGGAAUUCUCGGGUGCCAA | 0.783 |
| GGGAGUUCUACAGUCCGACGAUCUAUUAUUAUUAUAAUUAUUUUUUUGCGUGAAAGUGUUACAUAUUCUUUCACUUGUAUGUACAGAGAGGUUUUUCUGAAUAUUUAUUUUAAGGGUUAAAUCACUUUUGCUUUGGAAUUCUCGGGUGCCAA | 1.24 |
| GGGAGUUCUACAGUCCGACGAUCUUGCCCCAACUACUUACUAUUAUUUCGCUUUCGUUUUCCUGUAUUUUUUUCUUGCAUUGACAUUAUUGACGUUGAGGACCUCAUCAGAUCAAUUUAAAAGUGAGUGUGGAUGGAAUUCUCGGGUGCCAA | 0.896 |
| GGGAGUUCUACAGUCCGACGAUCACUCAGAGUCUGCCUGCAUCUGUCUCCUAGUGCUGGGAUUAAAGGUGUGAGCCAUUAUACCUGGCUUUCAGGUAUGUUUUCUUAAGACUGCCAUCACAAAUGUCCCGGGGUGGAAUUCUCGGGUGCCAA | 0.613 |

Sample 2 — method: EMSA with sequencing; molecule type: double-stranded DNA, one strand shown; medium: in vitro; concentration: 10 and 20 nM; relative to: negative control set to 0; direction: higher = stronger binding
Target: Hepatocyte nuclear factor 3-alpha (Foxa1, Mus musculus, UniProt P35582, residues 1-468, full length assumed)
Sequence of UniProt P35582 (whole entry, looked up): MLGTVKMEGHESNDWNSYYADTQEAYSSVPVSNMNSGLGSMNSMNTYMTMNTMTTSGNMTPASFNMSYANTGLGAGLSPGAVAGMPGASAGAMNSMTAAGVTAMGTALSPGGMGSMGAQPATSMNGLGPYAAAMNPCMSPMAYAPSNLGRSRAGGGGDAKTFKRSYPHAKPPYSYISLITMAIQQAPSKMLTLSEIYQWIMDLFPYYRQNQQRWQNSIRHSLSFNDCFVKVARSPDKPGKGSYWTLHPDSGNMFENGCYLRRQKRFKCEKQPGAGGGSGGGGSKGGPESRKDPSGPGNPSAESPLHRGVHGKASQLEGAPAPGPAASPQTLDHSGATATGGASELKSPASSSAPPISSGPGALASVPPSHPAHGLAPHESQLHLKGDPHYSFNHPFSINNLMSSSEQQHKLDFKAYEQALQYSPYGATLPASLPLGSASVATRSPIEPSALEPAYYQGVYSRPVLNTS
Setting: whole designed probe, mean of two concentrations, ends assumed
| Sequence | normalised bound fraction [ratio] |
| --- | --- |
| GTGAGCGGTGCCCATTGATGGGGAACATCTTCCCCCTCTTCCTTGCCCCACCAGCTCACCTTCCCGGGTCAAAGTAAACAAGTGTTTACTTTGAAGCCGGCATTCGTTAACCCTCTTCTGGCGCAAACTGCCAGAGCAAACAGATGAATCATGGTCCTTTGGCGACGCCAGGCTCCGGGAGAGCAAAGCACCGTGTCAGGGCCATGATCCGGGGTGGCCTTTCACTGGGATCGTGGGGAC | 0.463 |
| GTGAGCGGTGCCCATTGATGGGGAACATCTTCCCCCTCTTCCTTGCCCCACCAGCTCACCTACGGGGGTTATTTGCACAAAGGAAAATAAATAAAGCCGGCATTCGTTAACGCAGTTCTGGCGCAAACTGCTGTTTGCTCTGGATCTAACATGGTCCTTTGGCGAGGCGTGGCTCCGGGAGAGCAAAGCACCGTGTCAGGGCCATGATCCGGGGTGGCCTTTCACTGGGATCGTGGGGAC | 0.383 |
| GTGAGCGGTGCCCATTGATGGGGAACCAAGTTTGTGGTCCAGGAGCAACAGGTTATGCCATACAGCCTAGGTGTGTAGTAGGCTACACACCGTCTATGTTTGTGTTGTACACTCTACAATGTTTGCACAACCATGACTCATTGATGAAATCTTCTCAGAACATACCCCTGTTGTTAAGCGATACATGACTGTACTTTTTTTAAAAAGTCCAAGGATATATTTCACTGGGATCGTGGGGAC | 0.438 |
| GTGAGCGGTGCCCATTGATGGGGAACGAGCTGCTTGCAATTGAGTTGTATGTATGCTTCCACTTAATACGTCCTGCCGAGCCTGTAAGCCAACCACTTCCGGCAGGAATCTGCCCTCTGTGTTTACCTACTCTCTTTTTATGTCTTATTCCCAGAATGACTGGGGACCAAAGGAATCCTTTGCAGGAGTTTTCTCCAGACAGACAGTTCCACATGCTAGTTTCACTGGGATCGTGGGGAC | 0.26 |
| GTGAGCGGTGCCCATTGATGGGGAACAGAGCAACTGACAATCTCACACATTGCTAATGGAATAGTGGGTTTGGTGACTTGGAAGTGGGATGTTGAGGGCTTCTTGAAGGTTTTATTCATGTTTACTTTAATTGCCAACATTAGTTCTTACATAGGTATTTTCACAAAATAATGTATTGAGCTGTATACTTACTATTTGTGTACTTTTTCTTAATGCATTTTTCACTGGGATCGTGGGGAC | 0.427 |
| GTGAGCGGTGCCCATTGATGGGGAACATCTTCCCCCTCTTCCTTGCCCCACCAGCTCACCTACGGGGGTTATTTGCACAAAGGAAAATAAATAAAGCCGGCATTCGTTAACGCAGTTCTGGCGCAAACTGCTGTTTGCTCTGCATGAATCATGGTCCTTACGCGACGCCAGGCTCCGGGAGAGCAAAGCACCGTGTCAGGCGCATGATCCGGGGTGGCCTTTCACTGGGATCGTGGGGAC | 0.386 |

Sample 3 — method: protein-binding microarray; molecule type: double-stranded DNA, one strand shown; medium: in vitro; concentration: 940 nM top; setting: 60-bp whole probe; with: salmon DNA 0.4 mg/ml; relative to: random background probes; direction: higher = stronger binding; all sequences stand within: GCCTAGCAC … GTCTTGATTCGCTTGACGCTGCTG
Target: Interferon regulatory factor 5, full length, phosphomimetic (IRF5, Homo sapiens, UniProt Q13568-2, residues 1-514, S451D/S453D/S456D/S462D)
| Sequence | fitted relative affinity [z-score] |
| --- | --- |
| AGCAAGCCCCTTCCTTTCGGGTGCTAG | -0.125 |
| TTAGAACTGAGTTTTGATTAGTGCTAG | -0.0268 |
| GACGGTTTCGGGCATCGGGACGTGCTA | 7.38 |
| CAACTTTTTTTAATTGAGAAGTGCTAG | 0.162 |
| GACGGACTGGACTTTCGCGACGTGCTA | -0.38 |
| TTAGGTTTCGACTTTCGGTTAGTGCTA | 9.12 |
| GACGGTATCGGACTAGGGACGTGCTAG | 2.94 |
| TCAGGTCACTCTCTGGGACTGTGCTAG | -0.0522 |
| TTAGATTTCAGACTGGATCAGTGCTAG | -0.16 |
| GACGGTATGGACTTTCGGGACGTGCTA | 0.287 |
| GACGATTTCGACTATCGGGACGTGCTA | 0.544 |
| GACGGTATCGGTATCGGGTCGTGCTAG | 10.3 |
| TTAAATCTCAGACTGGATTAGTGCTAG | -0.317 |
| GACGGTTCCGGTTTCGGCACGTGCTAG | 6.18 |
| TTAGGTAACGACTATCGGTTAGTGCTA | 0.0531 |
| TTAGGTATCGACTATCGGTAAGTGCTA | 6.18 |
| GACGGTATCGGGTTTTGGGACGTGCTA | 3.84 |
| GACGGACTGGGTTTCGCGACGTGCTAG | 0.153 |
| TTAGGTTTCAGACTGGGTTAGTGCTAG | 2.12 |

Sample 4 — method: RNA Bind-n-Seq; molecule type: RNA; medium: in vitro; concentration: 200 nM; setting: whole 134-nt RNA, ends assumed; with: 150 mM LiCl; relative to: input library; direction: higher = stronger binding; library: 7-deaza-guanosine replaces G
Target: Ras GTPase-activating protein-binding protein 1, full length (G3BP1, Homo sapiens, UniProt Q13283)
Sequence of UniProt Q13283 (whole entry, looked up): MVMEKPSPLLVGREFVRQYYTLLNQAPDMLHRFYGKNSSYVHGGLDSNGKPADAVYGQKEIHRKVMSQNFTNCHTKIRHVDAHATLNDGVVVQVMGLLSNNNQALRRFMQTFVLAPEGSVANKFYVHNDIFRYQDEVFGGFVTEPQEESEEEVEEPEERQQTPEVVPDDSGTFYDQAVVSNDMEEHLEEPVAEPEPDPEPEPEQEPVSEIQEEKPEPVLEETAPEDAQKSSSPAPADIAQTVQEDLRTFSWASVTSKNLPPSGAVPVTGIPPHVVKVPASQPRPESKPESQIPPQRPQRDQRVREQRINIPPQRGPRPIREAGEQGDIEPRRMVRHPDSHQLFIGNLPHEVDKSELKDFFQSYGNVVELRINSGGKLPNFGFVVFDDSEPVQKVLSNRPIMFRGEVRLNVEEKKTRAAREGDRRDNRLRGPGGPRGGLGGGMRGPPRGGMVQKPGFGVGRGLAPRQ
| Sequence | log2 enrichment |
| --- | --- |
| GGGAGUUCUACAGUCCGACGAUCACCAUGCAGGUGGGCAUCUUUGGGAAGUGGGGCAAGGGGGGGAUAGGGAGGGGGGUAACACUUUGGGAACAGGAAAUCCCAGGUCGUUUCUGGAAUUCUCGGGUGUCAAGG | 0.203 |
| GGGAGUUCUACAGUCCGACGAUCUGCUGAAGCUCACACCCGUGGACCACCCAGACUGCCUGCCGCUACAGGAUGCCCUCCGCAUCUCCCAGGACUUCUUUCCGGCAUCAGUGUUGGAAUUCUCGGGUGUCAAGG | -0.843 |
| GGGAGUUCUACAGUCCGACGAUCGCAGGAAGUAAAAACAAAUGGAAAUGCUUCGGAUAGUGGCAGGGGUGGGGGUUGCUAAGGUAAGGGUGGGAUGGGAGUGGGUAAAGAGUUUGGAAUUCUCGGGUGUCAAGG | 0.265 |
| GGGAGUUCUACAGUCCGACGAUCCACAGACGACACGCACCCACACAGACACAGAGGGAAGGGGUUGGGAUGGGGACAGGGUGCACAGCAGGGCGGGGUAGGACCCCAGCCCCUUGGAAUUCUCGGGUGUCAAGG | 0.532 |
| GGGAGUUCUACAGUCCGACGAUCGCAGGAAGUAAAAACAAAUGGAAAUGCUUCGGAUAGUGGCAGGGGUGGGGGUUGCUAAGGAAAGGGUGGGAUGGGUGUGGGUAAAGAGUUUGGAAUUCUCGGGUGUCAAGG | 0.428 |
| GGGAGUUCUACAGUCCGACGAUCCCAGAGCCAGAGAGCUUGGGCCCUGGGACGCCUGGGUUCCCCGAGCAGGAGGAAGACGAACUUCACCGCACCCUGGGCGUGGAGCGGUUUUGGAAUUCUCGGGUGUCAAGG | -1.74 |
| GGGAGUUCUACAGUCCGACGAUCACCAUGCAGGUGGGCAUCUUUGGGAAGUGGGGCAAGGGGGGGAUAGGGAGGGGGGUAACAAUUUGGGAACAGGUGGUCCCAGGUCGUUUCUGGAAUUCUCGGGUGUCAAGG | 0.0118 |
| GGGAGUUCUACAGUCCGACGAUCUCAAGUCCUGUGCUACACAUCGUAUGUACCGAAUCGGAAAAAAAGGUUUGGUGGAAAGUAUUAUGUUACGCCGUUCGGAUCUGCACUUCCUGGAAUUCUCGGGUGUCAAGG | -0.931 |
| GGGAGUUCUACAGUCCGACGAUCUCAAGUCCUGUGCUACACAUCGUAUGUACCGAAUCGGAAAAAGGUUUGGUUUGGAAAGUAUUAUGUUACGCCGUUCGGAUCUGCACUUCCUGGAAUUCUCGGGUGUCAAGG | -1.06 |
| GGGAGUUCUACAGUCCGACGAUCCCUGUGCUACACAUCGUAUGUACCGAAUCGGGGAGGGGUUUUUUUGGGGUUUUUUUGGGGAAAGUAUUAUGUUACGCCGUUCGGAUCUGCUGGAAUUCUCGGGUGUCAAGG | 1.58 |
| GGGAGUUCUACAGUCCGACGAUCUAACUUUAGAGGAGGAUCUGAUGGAUAUGGCAGUGGACGUGGAUUUGGGGAUGUCUAUAAUGGGUAUGGAGGAGGACCUGGAGGUGGCAAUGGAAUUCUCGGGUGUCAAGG | -0.0129 |

For quick reference, copied from above (sample 3):
| Sequence | fitted relative affinity [z-score] |
| --- | --- |
| GACGGTATGGACTTTCGGGACGTGCTA | 0.287 |
| CAACTTTTTTTAATTGAGAAGTGCTAG | 0.162 |
| TTAGAACTGAGTTTTGATTAGTGCTAG | -0.0268 |
| TTAAATCTCAGACTGGATTAGTGCTAG | -0.317 |
| TTAGGTTTCGACTTTCGGTTAGTGCTA | 9.12 |
